Published values pooled from the literature.
Compare with care: the assays were run in different laboratories. ± marks the error that the study gave.
UniProt P21729, sequence (whole entry, looked up): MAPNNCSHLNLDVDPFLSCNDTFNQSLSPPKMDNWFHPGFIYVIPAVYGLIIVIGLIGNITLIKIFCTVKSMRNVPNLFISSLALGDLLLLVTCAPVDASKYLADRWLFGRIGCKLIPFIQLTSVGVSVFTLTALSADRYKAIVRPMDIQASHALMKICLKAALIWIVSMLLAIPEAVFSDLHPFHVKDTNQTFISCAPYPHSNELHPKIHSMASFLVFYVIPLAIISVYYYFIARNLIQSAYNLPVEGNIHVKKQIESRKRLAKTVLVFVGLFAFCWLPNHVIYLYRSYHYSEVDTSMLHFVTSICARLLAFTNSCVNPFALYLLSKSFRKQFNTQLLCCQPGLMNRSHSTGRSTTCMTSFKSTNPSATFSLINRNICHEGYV
UniProt Q15858, sequence (whole entry, looked up): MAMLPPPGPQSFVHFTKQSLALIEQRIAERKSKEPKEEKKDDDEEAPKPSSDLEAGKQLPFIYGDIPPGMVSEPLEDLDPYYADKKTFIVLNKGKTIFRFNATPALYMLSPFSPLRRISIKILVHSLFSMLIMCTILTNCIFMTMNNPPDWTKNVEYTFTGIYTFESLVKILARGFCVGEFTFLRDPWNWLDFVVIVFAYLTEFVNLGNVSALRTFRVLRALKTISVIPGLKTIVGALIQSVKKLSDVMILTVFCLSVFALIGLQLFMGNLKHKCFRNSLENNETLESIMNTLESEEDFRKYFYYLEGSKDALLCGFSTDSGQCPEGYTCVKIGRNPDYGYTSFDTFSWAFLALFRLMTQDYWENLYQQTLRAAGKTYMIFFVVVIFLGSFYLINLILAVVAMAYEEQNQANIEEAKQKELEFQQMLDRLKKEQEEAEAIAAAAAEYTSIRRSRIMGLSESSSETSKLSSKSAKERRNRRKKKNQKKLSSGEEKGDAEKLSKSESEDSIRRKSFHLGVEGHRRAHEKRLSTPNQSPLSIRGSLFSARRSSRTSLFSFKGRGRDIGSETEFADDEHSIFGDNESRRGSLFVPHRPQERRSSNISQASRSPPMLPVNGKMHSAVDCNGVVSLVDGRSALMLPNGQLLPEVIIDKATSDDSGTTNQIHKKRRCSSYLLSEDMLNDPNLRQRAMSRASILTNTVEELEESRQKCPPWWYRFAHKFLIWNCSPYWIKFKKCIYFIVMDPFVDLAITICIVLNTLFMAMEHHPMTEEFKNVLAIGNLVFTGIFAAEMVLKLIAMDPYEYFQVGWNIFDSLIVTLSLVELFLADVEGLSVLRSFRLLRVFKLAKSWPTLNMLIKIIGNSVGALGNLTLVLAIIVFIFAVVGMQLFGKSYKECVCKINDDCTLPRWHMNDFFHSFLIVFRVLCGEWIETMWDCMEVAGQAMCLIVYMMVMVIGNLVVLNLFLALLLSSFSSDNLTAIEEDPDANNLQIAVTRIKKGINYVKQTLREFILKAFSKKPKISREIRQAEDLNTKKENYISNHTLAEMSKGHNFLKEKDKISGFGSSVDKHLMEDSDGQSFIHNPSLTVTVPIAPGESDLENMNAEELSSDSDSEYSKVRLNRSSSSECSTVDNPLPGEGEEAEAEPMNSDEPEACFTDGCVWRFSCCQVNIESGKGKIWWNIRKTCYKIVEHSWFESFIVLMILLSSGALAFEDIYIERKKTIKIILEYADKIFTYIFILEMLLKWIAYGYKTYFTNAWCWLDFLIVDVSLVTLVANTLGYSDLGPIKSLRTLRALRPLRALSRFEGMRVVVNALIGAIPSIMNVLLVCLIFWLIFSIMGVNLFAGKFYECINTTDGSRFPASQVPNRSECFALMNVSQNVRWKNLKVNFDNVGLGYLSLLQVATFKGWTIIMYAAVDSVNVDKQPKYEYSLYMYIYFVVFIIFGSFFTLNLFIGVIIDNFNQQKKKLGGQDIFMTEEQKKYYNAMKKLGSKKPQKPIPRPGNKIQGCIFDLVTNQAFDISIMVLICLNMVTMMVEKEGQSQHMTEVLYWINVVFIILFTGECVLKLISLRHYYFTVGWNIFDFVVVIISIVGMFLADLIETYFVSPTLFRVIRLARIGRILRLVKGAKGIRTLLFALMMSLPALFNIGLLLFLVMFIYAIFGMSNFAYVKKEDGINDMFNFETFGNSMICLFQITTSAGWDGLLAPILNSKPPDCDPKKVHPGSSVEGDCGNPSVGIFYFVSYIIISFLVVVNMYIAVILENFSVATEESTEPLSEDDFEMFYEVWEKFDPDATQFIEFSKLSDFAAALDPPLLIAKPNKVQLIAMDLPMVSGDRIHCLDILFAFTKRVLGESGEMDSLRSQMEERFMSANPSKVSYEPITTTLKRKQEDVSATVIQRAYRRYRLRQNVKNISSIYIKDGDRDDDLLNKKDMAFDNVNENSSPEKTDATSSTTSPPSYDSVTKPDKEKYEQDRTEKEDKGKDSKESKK

SMILES | target or system | test | system | conditions | how to read | quantity | result
C[C@@H](O)[C@H](NC(=O)[C@@H]1CSSC[C@H](NC(=O)[C@@H](Cc2ccccc2)NC(=O)CN2CCCN3CCN(CCCN(CP(=O)(O)O)CC3)CC2)C(=O)N[C@@H](Cc2ccc(O)cc2)C(=O)N[C@H](Cc2c[nH]c3ccccc23)C(=O)N[C@@H](CCCCN)C(=O)N[C@@H]([C@@H](C)O)C(=O)N1)C(=O)O [copper-64 labelled] |  |  | Lewis rat, male, tumour-bearing, pancreas | injection, 4 h |  | tissue uptake | 6 ± 0.1 %ID/g
N=C(N)NCCC[C@@H]1NC(=O)[C@H](CCCCNC(=O)CCOCCOCCOCCOCCNC(=O)CC[C@H](NC(=O)CCOCCOCCOCCOCCNC(=O)CC[C@H](NC(=O)CN2CCN(CC(=O)O)CCN(CC(=O)O)CCN(CC(=O)O)CC2)C(=O)NCCOCCOCCOCCOCCC(=O)N[C@@H](CCC(=O)NCCOCCOCCOCCOCCC(=O)NCCCC[C@@H]2NC(=O)[C@@H](Cc3ccccc3)NC(=O)[C@H](CC(=O)O)NC(=O)CNC(=O)[C@H](CCCNC(=N)N)NC2=O)C(=O)NCCOCCOCCOCCOCCC(=O)NCCCC[C@@H]2NC(=O)[C@@H](Cc3ccccc3)NC(=O)[C@H](CC(=O)O)NC(=O)CNC(=O)[C@H](CCCNC(=N)N)NC2=O)C(=O)NCCOCCOCCOCCOCCC(=O)NCCCC[C@@H]2NC(=O)[C@@H](Cc3ccccc3)NC(=O)[C@H](CC(=O)O)NC(=O)CNC(=O)[C@H](CCCNC(=N)N)NC2=O)NC(=O)[C@@H](Cc2ccccc2)NC(=O)[C@H](CC(=O)O)NC(=O)CNC1=O [indium-111 labelled] |  |  | athymic nude mice, female, U-87 MG glioma xenograft, spleen | intravenous, 3 µCi, 72 h |  | tissue uptake | 1.12 ± 0.15 %ID/g
CSCC[C@H](NC(=O)[C@H](CC(C)C)NC(=O)[C@H](Cc1c[nH]cn1)NC(=O)CNC(=O)[C@@H](NC(=O)[C@H](C)NC(=O)[C@H](Cc1c[nH]c2ccccc12)NC(=O)[C@H](CCC(N)=O)NC(=O)CCCCCCCNC(=O)CCC(=O)Nc1ccc(CNC23CNCCNCC(N)(CNCCNC2)CNCCNC3)cc1)C(C)C)C(N)=O [copper-64 labelled] |  |  | female SCID mice, PC-3 xenograft, bone | intravenous, 0.6 MBq, 4 h |  | tissue uptake | 0.815 ± 0.035 %ID/g
CCCC[C@H](NC(=O)CCCCCCCNC(=O)c1ccc(NN)nc1)C(=O)N[C@H]1CC(=O)NCCCC[C@@H](C(N)=O)NC(=O)[C@H](Cc2c[nH]c3ccccc23)NC(=O)[C@H](CCCNC(=N)N)NC(=O)[C@@H](Cc2ccccc2)NC(=O)[C@H](Cc2c[nH]cn2)NC1=O [technetium-99m labelled] |  |  | C57 mouse, B16/F1 melanoma, liver | 2 h, together with: NDP-MSH 10 µg (6.07 nmol) co-injected |  | tissue uptake | 1.22 ± 0.12 %ID/g
CCCNC(=O)[C@H](CC(C)C)NC(=O)[C@H](Cc1c[nH]cn1)NC(=O)CNC(=O)[C@@H](NC(=O)[C@H](C)NC(=O)[C@H](Cc1c[nH]c2ccccc12)NC(=O)[C@H](CCC(N)=O)NC(=O)[C@@H](Cc1ccccc1)NC(=O)CCCCCNC(=O)CN1CCN(CC(=O)O)CCN(CC(=O)O)CCN(CC(=O)O)CC1)C(C)C [indium-111 labelled] | Gastrin-releasing peptide receptor (Mus musculus, UniProt P21729) | biodistribution | CF-1 mice, blood | intravenous, 1 h, unblocked |  | tissue uptake | 0.16 ± 0.09 %ID/g
CCCC[C@H](NC(=O)CNC(=O)CNC(=O)c1ccc(NN)nc1)C(=O)N[C@H]1CC(=O)NCCCC[C@@H](C(N)=O)NC(=O)[C@H](Cc2c[nH]c3ccccc23)NC(=O)[C@H](CCCNC(=N)N)NC(=O)[C@@H](Cc2ccccc2)NC(=O)[C@H](Cc2c[nH]cn2)NC1=O [technetium-99m labelled] |  |  | C57 mouse, B16/F1 melanoma-bearing, bone | intravenous, 24 h |  | tissue uptake | 0.09 ± 0.03 %ID/g
CCN(Cc1ccccc1)C(=O)CCc1nc(CN2CCN(C(=O)Cc3ccc(OC)c(OC)c3)CC2)no1 | Sodium channel protein type 9 subunit alpha (SCN9A, Homo sapiens, UniProt Q15858) | sodium current, whole-cell patch clamp | HEK293 stably expressing NaV1.7 | 10 µM | relative to: control, towards hyperpolarisation | activation curve shift | 4.93 mV
CN[C@](C)(C[18F])C(=O)O | MDA-MB-468 tumour model |  | host not given, liver | 1 h, tumour-bearing |  | tracer uptake | 3.3 %ID/g
CSCC[C@H](NC(=O)[C@H](CC(C)C)NC(=O)[C@H](Cc1c[nH]cn1)NC(=O)CNC(=O)[C@@H](NC(=O)[C@H](C)NC(=O)[C@H](Cc1c[nH]c2ccccc12)NC(=O)[C@H](CCC(N)=O)NC(=O)CCCCNC(=O)CSCCSCCP(CO)CO)C(C)C)C(N)=O [technetium-99m labelled] |  |  | female CF-1 mouse, carcass | intravenous, 24 h |  | tissue uptake | 1.5 %ID
N=C(N)NCCC[C@@H]1NC(=O)[C@H](CCCCNC(=O)CCOCCOCCOCCOCCNC(=O)CN2CCN(CC(=O)O)CCN(CC(=O)O)CCN(CC(=O)O)CC2)NC(=O)[C@@H](Cc2ccccc2)NC(=O)[C@H](CC(=O)O)NC(=O)CNC1=O [indium-111 labelled] |  |  | female athymic nude mice, heart | intravenous, 3 µCi, 0.5 h, U-87 MG glioma xenograft |  | tissue uptake | 1.83 ± 0.08 %ID/g
CC[C@H](C)C(=O)N1CCC(NC(=O)Nc2ccc(OC(F)(F)F)c(F)c2)CC1 |  |  | healthy volunteers | oral, 2 mg single dose |  | subjects with feeling hot TEAE | 0%
N=C(N)NCCC[C@@H]1NC(=O)[C@H](CCCCNC(=O)CC[C@H](NC(=O)CCOCCOCCOCCOCCNC(=O)CC[C@H](NC(=O)CN2CCN(CC(=O)O)CCN(CC(=O)O)CCN(CC(=O)O)CC2)C(=O)NCCOCCOCCOCCOCCC(=O)N[C@@H](CCC(=O)NCCCC[C@@H]2NC(=O)[C@@H](Cc3ccccc3)NC(=O)[C@H](CC(=O)O)NC(=O)CNC(=O)[C@H](CCCNC(=N)N)NC2=O)C(=O)NCCCC[C@@H]2NC(=O)[C@@H](Cc3ccccc3)NC(=O)[C@H](CC(=O)O)NC(=O)CNC(=O)[C@H](CCCNC(=N)N)NC2=O)C(=O)NCCCC[C@@H]2NC(=O)[C@@H](Cc3ccccc3)NC(=O)[C@H](CC(=O)O)NC(=O)CNC(=O)[C@H](CCCNC(=N)N)NC2=O)NC(=O)[C@@H](Cc2ccccc2)NC(=O)[C@H](CC(=O)O)NC(=O)CNC1=O [indium-111 labelled] |  |  | female athymic nude mice, liver | intravenous, 3 µCi, 0.5 h, U-87 MG glioma xenograft |  | tissue uptake | 2.13 ± 0.74 %ID/g
CSCC[C@H](NC(=O)[C@H](CC(C)C)NC(=O)[C@H](Cc1c[nH]cn1)NC(=O)CNC(=O)[C@@H](NC(=O)[C@H](C)NC(=O)[C@H](Cc1c[nH]c2ccccc12)NC(=O)[C@H](CCC(N)=O)NC(=O)CCCCCNC(=O)CNC(=O)CNC(=O)CNC(=O)CSC(C)=O)C(C)C)C(N)=O [technetium-99m labelled] |  |  | healthy Swiss mouse, small intestine, contents removed | intravenous, 18.5 MBq, 5 min |  | tissue uptake | 12 ± 3.37 %ID/g

For quick reference, copied from above:
SMILES | target or system | test | system | conditions | how to read | quantity | result
CSCC[C@H](NC(=O)[C@H](CC(C)C)NC(=O)[C@H](Cc1c[nH]cn1)NC(=O)CNC(=O)[C@@H](NC(=O)[C@H](C)NC(=O)[C@H](Cc1c[nH]c2ccccc12)NC(=O)[C@H](CCC(N)=O)NC(=O)CCCCCCCNC(=O)CCC(=O)Nc1ccc(CNC23CNCCNCC(N)(CNCCNC2)CNCCNC3)cc1)C(C)C)C(N)=O [copper-64 labelled] |  |  | female SCID mice, PC-3 xenograft, bone | intravenous, 0.6 MBq, 4 h |  | tissue uptake | 0.815 ± 0.035 %ID/g
